# Measured values of several laboratories.
# Every numbered part comes from another study and shows a few of its results, in no order. Positions count from the first letter of the parent shown.

# Sample 1 — technique: aptamer microarray, sandwich; molecule type: DNA with 2'F-ANA; medium: in vitro; tested at: 200 nM; with: Cy3 exosite-II aptamer, 400 nM; reading: higher = stronger binding; oligonucleotide: GGTTGGTGTGGTTGG
# Target: Prothrombin, mature alpha-thrombin (F2, Homo sapiens, UniProt P00734)
# Notes: whole 15-mer aptamer, many near background
Modification,mean fluorescence intensity
2'F-ANA at 1 3 7 8 12 13 14,163 a.u.
2'F-ANA at 1 2 3 4 8 9 10 11 12 15,73.4 a.u.
2'F-ANA at 3 4 5 9,104 a.u.
2'F-ANA at 2 3 4 5 6 8 9 10 11 13 14,50.4 a.u.
2'F-ANA at 1 3 4 6 7 14,68.3 a.u.
2'F-ANA at 1 2 3 4 6 10 12 14 15,51.8 a.u.
2'F-ANA at 1 2 3 6 9 10 11 12,69.5 a.u.
2'F-ANA at 1 2 5 6 7 9 11 13 15,47.7 a.u.
2'F-ANA at 1 2 3 4 5 6 7 11 12 14 15,52.4 a.u.
2'F-ANA at 1 2 3 4 6 7 9 10 11 12 14 15,56.3 a.u.
2'F-ANA at 2 3 4 6 9 11 12 13 14 15,207 a.u.
2'F-ANA at 3 4 11 12,903 a.u.
2'F-ANA at 3 6 9 11 13 14,412 a.u.
2'F-ANA at 1 3 4 5 6 11 13,49.9 a.u.
2'F-ANA at 1 3 4 5 10 11 12 14,46.9 a.u.
2'F-ANA at 1 2 3 4 8 10 12 13,60.5 a.u.
2'F-ANA at 1 2 3 4 6 7 8 11 12 13 15,211 a.u.
2'F-ANA at 2 3 8 11 13 14,365 a.u.
2'F-ANA at 3 4 8 9 10 12 15,339 a.u.
2'F-ANA at 1 2 4 5 7 8 9 10 12 14,51.2 a.u.
2'F-ANA at 1 2 3 4 5 6 7 8 9 11 12 13 15,73.4 a.u.
2'F-ANA at 2 5 7 9 12 13,103 a.u.
2'F-ANA at 1 2 3 5 9 12 13 15,82.7 a.u.
2'F-ANA at 3 4 6 7 8 10 11 14,161 a.u.
2'F-ANA at 4 6 8 10 11 12 13 14,90.2 a.u.

# Sample 2 — technique: RNA Bind-n-Seq; molecule type: RNA; medium: in vitro; tested at: 365 nM; relative to: no-protein control; reading: higher = stronger binding
# Target: RNA binding protein fox-1 homolog 2, RRM domain, GST-SBP tag (RBFOX2, Homo sapiens, UniProt O43251-10, residues 100-194)
# Notes: natural RNA segment, single round, ends assumed
# Shared flanks, not repeated: GGGAGUUCUACAGUCCGACGAUC … UGGAAUUCUCGGGUGCCAA
Oligonucleotide,RBNS enrichment (R)
AAGAGGGGCACAGUAAGAGGGGGAGCUGAGCUGGGCCUGCCUGCAGGAAGACCUGGCCCAGGCUGCUGUGGGCAGAGGCCCUCAUCAAGCCAAGUGGAAUGGAGCCGGCC,0.819
ACUGAGCGUAUUUGAAUUUUUUCAUGCAAUUUUUCUAGAGCAAUAAUCAGUGGUGCUUUUGUGCCUAGGUUUUAUGUGAUUUUAAUGAAAUAUGGAUAGUUGUGGCCACC,0.433
GCUCCUCCUGUGCCCCAAUCUUUCCCAGUCCUUUCCCCUCAGAUGGAGACUUCAUUAUGUUAAUGAACGAGAUAAGAAGAAAAUGGCGCUCAUUGUGGCCUUGUUGAGUU,0.393
CUGCUCCCUCGGGCCUGUAGGGGGAGGUGGCCUUCUGACCCCUUUACACGUCCCCUGGGUGGACCUCCCUGCUGCAGGCACCAUACCUGCGAUGGUGUACAGGGCUGUGA,0.415
GAGGGCCGGGGGAAGACCCACUGAGCUGGGCAGGACACAGGCGAGCUCAGGUGAUGCCGGCCACCAGCAAUGCCUGGCCUGGUAGCUCCGCUUCUGCUUUCACCAAGAGA,0.987
CCUGCCCAGACUUUCUAUCCAGCCUCACUGAGCUGCCCACUACUGGAAGGGAACUGGGCCUCGGUGGCCGGGGCCGCGAGCUGUGACCACAGCACCCUCAAGCAUACGGC,0.642
UACCUAAUAAGAUUGAGUGAAAAAUUUGAGUCAAAUAUCUAGGGCAUUCACAGAGUAGCUGUGAGUUCUUGGUAAUGUGAAAAAGGCCUUGUUUUUCAGAAAUUCCUGGG,0.433
UGAUUUGUUGAUUUAGUUAAAAUAUACUAUUCCUAGAUUUAUUUAACAGUCUUUCUUAAAAUCAGUAUACUAUUUUAGUGGACUUCUGUCUCUAUGAGACAGCUAGUCCA,0.411
CCAGCUUGGAGCUUUAGUUUUUUUCUUUGUUUUUCUUGCUGCCCUCCUCCCUGCCCCCCUUUUCUUACAAGGAAAGAAAAGUUGGAUCGUCAGUGGCCAGCCUCCCCUCA,0.995
UCUGGUUGGGCCUUUGAAAGGCUCAGCCUCCCAUUGUGCAGUGCUUGGGUUUGGAGCUUAUUUGAAUGGAAGAGGUCAGUUUGUUCCUGGCUCUCCAUUUCUGGCCUCAG,0.415
CUGACCAACUGCCAAGCUCGCUUUGCUGCCCAGAGCACUGUCCCCUCACAGCAAGCACAAGUUGUCUGCACCACUUGGUUUCUGACUGAAGGGGAAGUACAGGACUACAU,0.376
CAACCAUUUUUAUUUAAAAUAAACAUUUGAGGGAAGUUACCAAGGCAGCUUUUUUCCUCAAAAGUAACCUGUUCCUCUUUGGAAUAGCACAUUUUAGGGGCAUGGUUAAU,0.4

# Sample 3 — technique: DNA-protein interaction ELISA; molecule type: double-stranded DNA, one strand shown; medium: in vitro, bacterial lysate; tested at: not given; notes: whole dsDNA probe, crude lysate protein; relative to: highest signal in screen; reading: higher = stronger binding
# Target: Probable WRKY transcription factor 11, DNA-binding domain (WRKY11, Arabidopsis thaliana, UniProt Q9SV15, residues 228-325)
# Residues (chain): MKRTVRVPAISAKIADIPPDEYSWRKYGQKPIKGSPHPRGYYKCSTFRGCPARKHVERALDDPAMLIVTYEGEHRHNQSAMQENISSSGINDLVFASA
Oligonucleotide,relative absorbance
AAAAAAATGCGCCCTTTCTGACATAAAAAA,15.6 % of maximum
AAAAAAGGGTATACTCGCAGCCCCTAAAAA,13 % of maximum
AAAAAACCAGTCTACACCGCTGTAGGAAAA,18.4 % of maximum
AAAAAAGGTAGTCACATTACGAGGGTAAAA,15.3 % of maximum
AAAAAAATTCATGCTATTTAACCTTAAAAA,19.6 % of maximum
AAAAAATGTCTAGACTCGGACATTCGAAAA,14.4 % of maximum
AAAAAACAGTTCGATGTCACCCCCGCAAAA,14.1 % of maximum
AAAAAATTGGTTCTCATTTCTACTTCAAAA,13.8 % of maximum
AAAAAAACCGCGTCGCGGCCCGGGAAAA,12.1 % of maximum
AAAAAACCCCAGATTTCCAGCAGTTCAAAA,14.4 % of maximum
AAAAAAATGGTGCCGCTGAGCAAATTAAAA,13.5 % of maximum
AAAAAAATCATCCTATTGTTGCTGTCAAAA,16.7 % of maximum
AAAAAAGGGCCCACTATCGACGTCAAAA,14.7 % of maximum
AAAAAATCCACGACTCAGCAGCTCTTAAAA,18.2 % of maximum
AAAAAATCTAGGGGTACCTATTTGGCAAAA,17 % of maximum
AAAAAAACCCGGCCGCCATGGTAGTAAAAA,15.8 % of maximum
AAAAAACCTTACTGTTGATTCTGGTTAAAA,15.6 % of maximum
AAAAAATTCTAACTTAGCCTATGTCCAAAA,16.7 % of maximum
AAAAAAGAGTGGTTTATTAATGTATAAAAA,17.6 % of maximum
AAAAAAGGGGTCCTTTTCCAATGTCTAAAA,16.4 % of maximum

# Sample 4 — technique: DHFR PCA, deep sequencing; medium: yeast; with: (+)-ABA 58 µM; relative to: wild-type fitted maximum; reading: higher = stronger binding
# Target: ABI1, truncated, D143A, DHFR fusion (Arabidopsis thaliana)
# Notes: methotrexate growth selection, single substitutions
# Starting sequence: PYL1, truncated, DHFR fusion (Arabidopsis thaliana); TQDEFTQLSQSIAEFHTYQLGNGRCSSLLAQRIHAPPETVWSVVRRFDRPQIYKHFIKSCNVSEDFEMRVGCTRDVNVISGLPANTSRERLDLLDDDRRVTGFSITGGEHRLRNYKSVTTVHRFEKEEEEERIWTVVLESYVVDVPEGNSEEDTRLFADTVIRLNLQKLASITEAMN; partner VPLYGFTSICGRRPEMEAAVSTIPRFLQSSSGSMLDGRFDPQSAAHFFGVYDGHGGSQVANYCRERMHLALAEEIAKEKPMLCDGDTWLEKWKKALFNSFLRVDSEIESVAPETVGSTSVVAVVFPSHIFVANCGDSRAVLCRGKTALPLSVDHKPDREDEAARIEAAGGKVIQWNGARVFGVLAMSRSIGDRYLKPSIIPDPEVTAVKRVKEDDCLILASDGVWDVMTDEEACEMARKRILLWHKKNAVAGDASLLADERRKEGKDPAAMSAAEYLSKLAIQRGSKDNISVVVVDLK
Substitution,relative binding score [%]
R163C,49
G107R,35.3
S11L,71.3
V118L,67.8
G71V,-1.61
Y53A,18.2
G23L,62.7
V43K,40.4
T119A,23.6
S27Q,73.6
S9F,69.9
E38F,27.7
F103K,-13
Q2I,92.9
Y115W,45.1
N177C,88.6
A175M,78.2
Y53F,62.2

# Sample 5 — technique: protein binding microarray; molecule type: double-stranded DNA, one strand shown; medium: in vitro; tested at: not given; relative to: not given; reading: higher = stronger binding
# Target: Histone acetyltransferase KAT6A, both winged helices, GST fusion (KAT6A, Homo sapiens, UniProt Q92794, residues 1-181)
# Notes: 8-mer, flanks averaged, mean of 2 arrays, mostly near background
# Construct (chain): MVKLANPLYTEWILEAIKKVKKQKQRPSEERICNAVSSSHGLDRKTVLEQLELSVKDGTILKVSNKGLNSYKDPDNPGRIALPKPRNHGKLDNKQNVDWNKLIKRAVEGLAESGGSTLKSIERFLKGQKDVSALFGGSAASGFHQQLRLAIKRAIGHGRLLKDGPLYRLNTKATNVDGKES
Oligonucleotide,E-score
GTTGATAA,-0.0644
ACACAACA,0.0553
AAAGCCTT,-0.152
AAGGGTGC,-0.107
CTCGCGTA,0.166
ATGGTGAC,-0.154
AATAGAGT,-0.207
CTCAATGC,0.0472
CGTGTATC,0.12
CTCTGCAG,-0.166
CATCAAAC,-0.0677
GCACTCGC,0.175
CCAAAGAG,-0.114
AGGGGCGC,0.204
CGTTGTTA,-0.0656
CCGATCCC,0.0426
TAGCTCAA,-0.169
AAACTGAG,-0.0755
GTGCCTTA,-0.22
CATCGAGC,0.0809
ACAACCTG,-0.267
GACATGCA,-0.117

# A few entries again (sample 1):
Modification,mean fluorescence intensity
2'F-ANA at 2 5 7 9 12 13,103 a.u.
2'F-ANA at 3 4 11 12,903 a.u.
2'F-ANA at 1 2 3 4 8 9 10 11 12 15,73.4 a.u.
2'F-ANA at 2 3 4 6 9 11 12 13 14 15,207 a.u.
2'F-ANA at 1 3 4 6 7 14,68.3 a.u.
2'F-ANA at 2 3 8 11 13 14,365 a.u.
2'F-ANA at 1 3 4 5 6 11 13,49.9 a.u.
2'F-ANA at 1 2 3 4 6 10 12 14 15,51.8 a.u.
2'F-ANA at 1 2 3 4 5 6 7 11 12 14 15,52.4 a.u.
2'F-ANA at 3 4 6 7 8 10 11 14,161 a.u.
2'F-ANA at 1 2 3 5 9 12 13 15,82.7 a.u.
2'F-ANA at 1 2 3 4 6 7 8 11 12 13 15,211 a.u.
2'F-ANA at 1 2 3 4 5 6 7 8 9 11 12 13 15,73.4 a.u.
2'F-ANA at 1 3 4 5 10 11 12 14,46.9 a.u.
2'F-ANA at 3 6 9 11 13 14,412 a.u.
